Assay results pooled from the literature.
Lines come from different studies, so protocols differ. “And” joins repeats or separate records; there may be more than shown. Numbers after ± are the reported error.
HCRTR2 del254-292/I293E/K294R/L160H/M161K/Q254E: Orexin receptor type 2 (HCRTR2, Homo sapiens, UniProt O43614, del254-292/I293E/K294R/L160H/M161K/Q254E)
UniProt O43614, sequence (whole entry, unmodified, looked up): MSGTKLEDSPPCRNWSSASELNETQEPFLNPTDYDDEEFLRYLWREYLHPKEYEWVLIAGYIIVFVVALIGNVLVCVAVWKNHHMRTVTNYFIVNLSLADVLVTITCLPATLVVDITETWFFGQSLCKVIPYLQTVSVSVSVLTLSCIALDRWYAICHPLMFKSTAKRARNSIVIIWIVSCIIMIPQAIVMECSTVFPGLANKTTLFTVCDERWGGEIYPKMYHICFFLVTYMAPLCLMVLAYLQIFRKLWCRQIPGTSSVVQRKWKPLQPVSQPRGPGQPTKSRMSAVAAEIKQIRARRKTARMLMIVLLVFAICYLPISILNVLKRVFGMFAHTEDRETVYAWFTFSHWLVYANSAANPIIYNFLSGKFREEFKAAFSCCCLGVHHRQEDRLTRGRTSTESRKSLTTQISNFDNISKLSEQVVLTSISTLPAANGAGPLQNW
UniProt Q01959, sequence (whole entry, looked up): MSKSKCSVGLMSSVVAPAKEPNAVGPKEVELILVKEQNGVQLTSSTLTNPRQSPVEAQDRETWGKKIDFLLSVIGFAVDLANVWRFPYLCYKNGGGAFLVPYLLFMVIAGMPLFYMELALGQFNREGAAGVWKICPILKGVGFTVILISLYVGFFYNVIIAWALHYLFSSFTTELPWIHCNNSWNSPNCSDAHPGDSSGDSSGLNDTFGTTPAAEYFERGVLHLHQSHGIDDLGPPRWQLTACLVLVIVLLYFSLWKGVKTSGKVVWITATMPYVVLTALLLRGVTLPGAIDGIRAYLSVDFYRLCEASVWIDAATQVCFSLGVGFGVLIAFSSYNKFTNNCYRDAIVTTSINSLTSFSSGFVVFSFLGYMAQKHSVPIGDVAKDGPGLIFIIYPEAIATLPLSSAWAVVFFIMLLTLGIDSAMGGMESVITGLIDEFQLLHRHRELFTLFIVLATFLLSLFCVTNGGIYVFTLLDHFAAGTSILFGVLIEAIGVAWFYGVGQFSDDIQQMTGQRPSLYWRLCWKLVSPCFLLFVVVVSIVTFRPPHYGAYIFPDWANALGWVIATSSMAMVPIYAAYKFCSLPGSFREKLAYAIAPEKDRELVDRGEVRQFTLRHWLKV
UniProt Q5ANA3, sequence (whole entry, looked up): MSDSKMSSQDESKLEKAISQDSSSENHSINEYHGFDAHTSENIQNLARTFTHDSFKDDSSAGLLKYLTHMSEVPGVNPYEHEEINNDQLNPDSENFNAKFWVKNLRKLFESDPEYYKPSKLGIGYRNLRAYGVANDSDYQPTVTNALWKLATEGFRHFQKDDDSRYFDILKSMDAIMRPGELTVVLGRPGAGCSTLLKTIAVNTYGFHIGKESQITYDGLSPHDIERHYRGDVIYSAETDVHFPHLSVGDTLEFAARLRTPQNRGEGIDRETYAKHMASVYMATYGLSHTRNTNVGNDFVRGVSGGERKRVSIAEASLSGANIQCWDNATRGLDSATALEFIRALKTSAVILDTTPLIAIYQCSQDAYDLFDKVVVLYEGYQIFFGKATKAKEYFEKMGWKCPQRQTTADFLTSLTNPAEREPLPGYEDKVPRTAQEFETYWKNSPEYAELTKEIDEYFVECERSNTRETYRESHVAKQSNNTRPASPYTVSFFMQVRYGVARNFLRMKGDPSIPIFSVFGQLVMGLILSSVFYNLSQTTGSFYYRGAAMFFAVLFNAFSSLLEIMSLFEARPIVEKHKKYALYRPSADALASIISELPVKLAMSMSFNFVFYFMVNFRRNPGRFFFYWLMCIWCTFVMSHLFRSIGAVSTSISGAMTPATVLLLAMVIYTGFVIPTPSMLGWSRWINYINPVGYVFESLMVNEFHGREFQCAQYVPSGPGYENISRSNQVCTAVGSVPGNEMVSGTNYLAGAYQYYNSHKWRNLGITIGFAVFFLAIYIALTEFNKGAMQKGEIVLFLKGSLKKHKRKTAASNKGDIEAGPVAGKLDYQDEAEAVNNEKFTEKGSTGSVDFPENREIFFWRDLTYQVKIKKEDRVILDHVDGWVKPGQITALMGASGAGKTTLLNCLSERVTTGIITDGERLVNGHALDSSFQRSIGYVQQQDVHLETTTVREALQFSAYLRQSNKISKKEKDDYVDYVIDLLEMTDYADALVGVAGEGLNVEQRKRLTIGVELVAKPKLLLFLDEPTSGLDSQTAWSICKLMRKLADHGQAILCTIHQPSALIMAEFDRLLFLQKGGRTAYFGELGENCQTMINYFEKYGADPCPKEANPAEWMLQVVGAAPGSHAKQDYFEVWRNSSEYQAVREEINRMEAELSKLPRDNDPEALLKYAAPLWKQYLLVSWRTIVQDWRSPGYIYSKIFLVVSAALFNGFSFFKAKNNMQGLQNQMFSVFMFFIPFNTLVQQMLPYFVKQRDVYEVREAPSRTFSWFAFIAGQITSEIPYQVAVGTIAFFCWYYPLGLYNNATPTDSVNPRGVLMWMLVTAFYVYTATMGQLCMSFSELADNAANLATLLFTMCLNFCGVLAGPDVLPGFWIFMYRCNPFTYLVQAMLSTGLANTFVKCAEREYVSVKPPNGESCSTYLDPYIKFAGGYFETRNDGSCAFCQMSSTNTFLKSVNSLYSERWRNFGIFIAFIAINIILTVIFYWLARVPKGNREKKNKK
UniProt P9WKJ7, sequence (whole entry, looked up): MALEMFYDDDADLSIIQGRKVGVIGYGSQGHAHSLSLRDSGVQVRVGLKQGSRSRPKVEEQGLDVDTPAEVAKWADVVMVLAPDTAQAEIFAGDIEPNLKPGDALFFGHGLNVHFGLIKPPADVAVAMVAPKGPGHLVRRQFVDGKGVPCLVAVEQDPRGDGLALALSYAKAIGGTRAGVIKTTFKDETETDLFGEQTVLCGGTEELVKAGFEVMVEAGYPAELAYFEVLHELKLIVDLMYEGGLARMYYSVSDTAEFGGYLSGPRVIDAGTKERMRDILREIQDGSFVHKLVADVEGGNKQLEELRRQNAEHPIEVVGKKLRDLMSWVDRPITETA
UniProt P06276, sequence (whole entry, looked up): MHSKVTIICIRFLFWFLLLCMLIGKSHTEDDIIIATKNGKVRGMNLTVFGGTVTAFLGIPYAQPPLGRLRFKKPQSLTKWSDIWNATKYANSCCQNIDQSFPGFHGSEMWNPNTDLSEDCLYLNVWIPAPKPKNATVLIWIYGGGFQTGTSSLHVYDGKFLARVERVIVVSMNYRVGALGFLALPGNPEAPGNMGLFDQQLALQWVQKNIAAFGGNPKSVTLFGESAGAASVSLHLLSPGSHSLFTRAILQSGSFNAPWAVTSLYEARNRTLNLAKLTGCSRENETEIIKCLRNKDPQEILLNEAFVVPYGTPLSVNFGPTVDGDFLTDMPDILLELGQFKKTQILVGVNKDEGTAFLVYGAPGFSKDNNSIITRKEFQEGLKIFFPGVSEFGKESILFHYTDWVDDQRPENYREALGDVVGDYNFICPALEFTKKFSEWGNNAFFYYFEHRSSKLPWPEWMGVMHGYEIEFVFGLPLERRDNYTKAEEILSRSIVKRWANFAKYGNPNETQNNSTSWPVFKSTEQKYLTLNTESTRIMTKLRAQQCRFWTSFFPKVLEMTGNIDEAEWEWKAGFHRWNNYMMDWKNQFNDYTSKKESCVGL
UniProt P14416, sequence (whole entry, looked up): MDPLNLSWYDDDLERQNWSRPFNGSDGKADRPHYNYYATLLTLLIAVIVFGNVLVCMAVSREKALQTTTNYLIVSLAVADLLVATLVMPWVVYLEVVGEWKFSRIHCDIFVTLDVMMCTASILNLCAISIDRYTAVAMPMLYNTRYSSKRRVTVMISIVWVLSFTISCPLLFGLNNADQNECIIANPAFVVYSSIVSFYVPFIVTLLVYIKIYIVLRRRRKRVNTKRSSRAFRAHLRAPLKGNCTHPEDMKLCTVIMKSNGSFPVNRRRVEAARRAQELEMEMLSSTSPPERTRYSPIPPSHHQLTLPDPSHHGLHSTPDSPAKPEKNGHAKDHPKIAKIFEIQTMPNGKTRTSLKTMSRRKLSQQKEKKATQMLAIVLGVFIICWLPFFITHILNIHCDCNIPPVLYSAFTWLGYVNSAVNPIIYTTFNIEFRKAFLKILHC
UniProt P11362, sequence (whole entry, looked up): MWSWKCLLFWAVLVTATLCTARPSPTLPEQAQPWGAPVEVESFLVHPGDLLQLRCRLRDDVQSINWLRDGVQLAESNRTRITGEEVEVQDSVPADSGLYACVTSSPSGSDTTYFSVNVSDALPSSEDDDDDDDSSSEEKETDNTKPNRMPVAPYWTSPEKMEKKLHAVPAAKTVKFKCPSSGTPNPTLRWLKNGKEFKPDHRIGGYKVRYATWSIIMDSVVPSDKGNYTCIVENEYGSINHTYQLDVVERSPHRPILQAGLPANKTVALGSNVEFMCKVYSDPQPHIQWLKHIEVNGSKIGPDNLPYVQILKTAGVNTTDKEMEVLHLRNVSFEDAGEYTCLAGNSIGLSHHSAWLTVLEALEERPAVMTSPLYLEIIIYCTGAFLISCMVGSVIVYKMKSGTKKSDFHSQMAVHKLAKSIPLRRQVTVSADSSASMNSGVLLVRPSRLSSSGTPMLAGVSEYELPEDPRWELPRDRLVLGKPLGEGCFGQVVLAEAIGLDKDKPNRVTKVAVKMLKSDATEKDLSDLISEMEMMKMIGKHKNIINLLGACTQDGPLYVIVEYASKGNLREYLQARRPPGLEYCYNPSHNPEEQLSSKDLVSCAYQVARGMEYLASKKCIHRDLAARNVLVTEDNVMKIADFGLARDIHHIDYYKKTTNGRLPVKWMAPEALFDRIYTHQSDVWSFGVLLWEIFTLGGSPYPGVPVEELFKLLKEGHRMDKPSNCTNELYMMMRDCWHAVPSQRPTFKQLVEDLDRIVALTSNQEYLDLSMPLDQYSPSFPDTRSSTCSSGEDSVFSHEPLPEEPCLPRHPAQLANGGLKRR

Compound | tested on | test | test system | conditions | scale | measurement | result
C=CCN1CC[C@]23c4c5ccc(O)c4O[C@H]2C(=O)CC[C@]3(O)[C@H]1C5 | Voltage-dependent N-type calcium channel subunit alpha-1B (Homo sapiens, UniProt Q00975) | – | – | concentration not given | – | inhibition | 3%
CN(C(=O)n1cnc(-c2ccc[n+]([O-])c2)c1)C1CCCCC1 | FGFR1 (Homo sapiens, UniProt P11362) | kinase activity, inhibitor | – | 10 µM, human, together with: poly(Glu:Tyr) substrate | – | inhibition | 3%
Oc1ccc2c3c1O[C@H]1[C@@H](O)CC[C@@]4(O)[C@@H](C2)N(CC2CCC2)CC[C@]314 | G-protein coupled receptor family C group 6 member A (GPRC6A, Homo sapiens, UniProt Q5T6X5) | β-arrestin recruitment, TANGO luminescence, measured: GPRC6A | – | concentration not given | baseline: basal luminescence | log2 fold change | 0.307
OC(Cn1cncn1)(Cn1cncn1)c1ccc(F)cc1F | CDR1 (Candida albicans, UniProt Q5ANA3) | ATPase activity, malachite green | – | 4 µM | baseline: no drug | remaining activity | 82.1% and 82.2%
Cc1cc(OCC(=O)O)cc(C)c1Cc1ccc(O)c(C(C)C)c1 | THRA (Homo sapiens, UniProt P10827) | – | – | – | – | Hill slope | 2.98
C[C@]12CCC(=O)C=C1CC[C@@H]1[C@@H]2CC[C@]2(C)C(=O)CC[C@@H]12 | Aromatase (CYP19A1, Homo sapiens, UniProt P11511) | – | – | – | – | association rate constant | 1.1e+07 M⁻¹ s⁻¹
Clc1cc(Cl)cc(N2CCNCC2)c1 | CHRM4 (Homo sapiens, UniProt P08173) | ERK1/2 phosphorylation, agonist | CHO cells | – | – | Emax | < 10%
COc1ccc(N2C(=O)N(c3c(C)cccc3Cl)Cc3cnc(Nc4ccc(C5CCN(C)CC5)cc4OC)nc32)nc1 | CSNK2A2 (Homo sapiens, UniProt P19784) | kinase activity, inhibitor | – | 0.5 µM, CK2A2 | – | inhibition | -10%
C[C@H]1CN(c2n[nH]c3nc(N[C@H]4CC[C@H](NS(=O)(=O)CCC(F)(F)F)CC4)ncc23)CCO1 | Exportin-4 (Homo sapiens, UniProt Q9C0E2) | biochemical | – | – | – | IC50 | ≥ 20 µM
CCN(CC)C(=O)[C@@H]1C=C2c3cccc4[nH]cc(c34)C[C@H]2N(C)C1 | Cholinesterase (BCHE, Homo sapiens, UniProt P06276) | – | – | concentration not given, Triton | – | efficacy | -93.8 ± 3.71%
CN(CCN1CCC(OC(=O)Nc2ccccc2-c2ccccc2)CC1)C(=O)c1ccc(CN2CCC(C(N)=O)CC2)cc1 | rat muscarinic receptor non-selective | radioligand binding | – | 1 µM | – | inhibition | 100%
C[C@]12N[C@H](Cc3ccccc31)c1ccccc12 | NMDA receptor GluN1/GluN2B lacking NTD | ion current, inhibitor, oocyte voltage clamp | – | 50 nM | – | onset time constant | 6.7 ± 1 s
CNC(=O)[C@@H](c1ccccc1)N1CCc2cc(OC)c(OC)cc2[C@@H]1CCc1ccc(C(F)(F)F)cc1 | HCRTR2 del254-292/I293E/K294R/L160H/M161K/Q254E | fluorescence sensor response, fluorescence | – | concentration not given | – | normalised fluorescence response | -2.62 and -3.01 and -2.1 and 0.579 and -2.78 and 2.22 and 1.69
OC(CCN1CCCCC1)(c1ccccc1)C1CCCCC1 (stereo not shown) | Plasmodium falciparum | – | HB3 | – | – | IC50 | 10 µM
CNC1(c2ccccc2Cl)CCCCC1=O (racemic) | DRD2 (Homo sapiens, UniProt P14416) | radioligand binding, antagonist, radioligand displacement | – | 30 µM, short isoform | – | inhibition | 4%
CCCCCCCC[C@H]1O[C@H]1C/C=C/C=C/[C@H](O)CC(=O)NC1=C[C@](C)(CC)OC1=O | Na(+)-translocating NADH-quinone reductase subunit B, whole Na+-NQR complex (nqrB, Vibrio cholerae serotype O1, UniProt Q9KPS2, G141A) | binding, isothermal titration calorimetry | – | 20 °C, NqrB-G141A mutant | – | ΔG | -8.4 kcal/mol
c1ccc2cc([C@]34CNC[C@H]3C4)ccc2c1 | SLC6A3 (Homo sapiens, UniProt Q01959) | inhibitor, [3H]dopamine uptake | – | 100 µM | baseline: no inhibitor | dopamine uptake | 0.11% and 0.349% and 0.0853%
O=c1[nH]c2nc(-c3ccccc3)sc2c(=O)n1O | Ketol-acid reductoisomerase (NADP(+)) (ilvC, Mycobacterium tuberculosis, UniProt P9WKJ7) | slow-binding inhibitor | – | no pre-incubation | – | kon | 2260 M⁻¹ s⁻¹
COC(=O)[C@@H](NC(=O)c1nn(Cc2ccc(F)cc2)c2ccccc12)C(C)(C)C | CNR1 (Homo sapiens, UniProt P21554) | GTPase | – | – | baseline: compound | Gi GTP turnover maximum | 102%
CN1C(=O)CN=C(c2ccccc2)c2cc(Cl)ccc21 | GABA-A receptor benzodiazepine site, central (rat) | radioligand binding | rat brain | 1×10 µM | – | inhibition | 100%
Cc1ccc(-n2nccn2)c(C(=O)N2CCN(c3nc4cc(Cl)ccc4o3)CC[C@H]2C)c1 | HCRTR2 del254-292/I293E/K294R/L160H/M161K/Q254E | fluorescence sensor response, fluorescence | – | concentration not given, together with: OXA | – | normalised fluorescence response | -0.195 and -0.316 and -0.126 and -0.303 and -0.166 and -0.00185
NCC(O)C1CCCCCCC1 (stereo not shown) | Plasmodium falciparum | – | GB4 | – | – | IC50 | 5.01 µM

A few entries again:
Compound | tested on | test | test system | conditions | scale | measurement | result
C[C@]12CCC(=O)C=C1CC[C@@H]1[C@@H]2CC[C@]2(C)C(=O)CC[C@@H]12 | Aromatase (CYP19A1, Homo sapiens, UniProt P11511) | – | – | – | – | association rate constant | 1.1e+07 M⁻¹ s⁻¹
Clc1cc(Cl)cc(N2CCNCC2)c1 | CHRM4 (Homo sapiens, UniProt P08173) | ERK1/2 phosphorylation, agonist | CHO cells | – | – | Emax | < 10%
COc1ccc(N2C(=O)N(c3c(C)cccc3Cl)Cc3cnc(Nc4ccc(C5CCN(C)CC5)cc4OC)nc32)nc1 | CSNK2A2 (Homo sapiens, UniProt P19784) | kinase activity, inhibitor | – | 0.5 µM, CK2A2 | – | inhibition | -10%
